Assay results pooled from the literature.
Lines come from different studies, so protocols differ. “And” joins repeats or separate records; there may be more than shown. Numbers after ± are the reported error.
GBA2: Beta-glucosidase (GBA2, Homo sapiens, UniProt Q9HCG7)
Sequence of UniProt P11712 (whole entry, looked up): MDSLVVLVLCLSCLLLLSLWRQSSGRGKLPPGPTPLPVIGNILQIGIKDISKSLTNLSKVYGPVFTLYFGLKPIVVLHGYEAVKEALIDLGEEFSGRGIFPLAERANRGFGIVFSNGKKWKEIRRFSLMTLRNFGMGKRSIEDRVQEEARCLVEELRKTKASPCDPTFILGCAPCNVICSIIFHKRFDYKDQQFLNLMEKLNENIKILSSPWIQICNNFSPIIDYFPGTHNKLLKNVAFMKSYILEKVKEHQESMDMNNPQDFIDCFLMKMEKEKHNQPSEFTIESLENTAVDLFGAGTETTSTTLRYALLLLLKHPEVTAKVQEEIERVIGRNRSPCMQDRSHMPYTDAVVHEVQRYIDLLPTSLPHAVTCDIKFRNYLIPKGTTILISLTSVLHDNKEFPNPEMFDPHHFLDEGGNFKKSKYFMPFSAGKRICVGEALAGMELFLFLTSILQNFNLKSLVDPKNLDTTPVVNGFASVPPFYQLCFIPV
Sequence of UniProt Q9HCG7 (whole entry, looked up): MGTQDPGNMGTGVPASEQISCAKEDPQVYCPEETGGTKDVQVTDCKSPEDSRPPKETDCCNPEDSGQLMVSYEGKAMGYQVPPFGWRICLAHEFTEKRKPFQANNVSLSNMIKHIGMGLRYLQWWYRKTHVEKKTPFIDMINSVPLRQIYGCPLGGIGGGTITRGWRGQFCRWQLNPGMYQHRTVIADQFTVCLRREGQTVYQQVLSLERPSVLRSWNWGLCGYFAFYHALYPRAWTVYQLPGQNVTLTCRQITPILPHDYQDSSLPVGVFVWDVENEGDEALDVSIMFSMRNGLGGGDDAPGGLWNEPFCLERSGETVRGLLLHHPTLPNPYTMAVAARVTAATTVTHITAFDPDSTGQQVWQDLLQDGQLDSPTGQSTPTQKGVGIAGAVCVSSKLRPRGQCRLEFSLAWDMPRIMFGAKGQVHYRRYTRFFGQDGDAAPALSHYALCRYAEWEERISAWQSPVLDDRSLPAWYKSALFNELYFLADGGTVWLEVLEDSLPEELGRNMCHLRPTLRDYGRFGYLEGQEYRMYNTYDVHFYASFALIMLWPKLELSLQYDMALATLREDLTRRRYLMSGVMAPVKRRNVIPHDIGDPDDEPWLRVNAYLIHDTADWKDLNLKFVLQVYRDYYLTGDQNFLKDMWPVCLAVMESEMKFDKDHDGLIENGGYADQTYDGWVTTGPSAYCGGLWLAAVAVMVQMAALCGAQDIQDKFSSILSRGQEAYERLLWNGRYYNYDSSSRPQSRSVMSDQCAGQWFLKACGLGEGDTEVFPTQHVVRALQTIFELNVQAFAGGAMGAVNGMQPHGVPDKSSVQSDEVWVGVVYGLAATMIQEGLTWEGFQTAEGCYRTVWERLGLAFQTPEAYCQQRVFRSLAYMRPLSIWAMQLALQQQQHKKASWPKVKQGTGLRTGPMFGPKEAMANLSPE
Sequence of UniProt O75469 (whole entry, looked up): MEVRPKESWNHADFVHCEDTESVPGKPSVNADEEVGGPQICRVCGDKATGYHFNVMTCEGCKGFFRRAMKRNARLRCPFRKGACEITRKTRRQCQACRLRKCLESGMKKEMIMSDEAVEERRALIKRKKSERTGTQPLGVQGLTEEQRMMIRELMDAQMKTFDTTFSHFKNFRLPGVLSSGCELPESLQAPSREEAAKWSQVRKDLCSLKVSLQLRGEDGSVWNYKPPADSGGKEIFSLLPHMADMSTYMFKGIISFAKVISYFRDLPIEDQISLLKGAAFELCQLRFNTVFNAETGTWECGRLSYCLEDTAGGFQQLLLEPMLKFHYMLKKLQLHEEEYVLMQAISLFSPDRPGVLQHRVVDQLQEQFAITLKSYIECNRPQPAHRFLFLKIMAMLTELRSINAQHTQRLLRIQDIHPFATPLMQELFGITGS
Sequence of UniProt P10632 (whole entry, looked up): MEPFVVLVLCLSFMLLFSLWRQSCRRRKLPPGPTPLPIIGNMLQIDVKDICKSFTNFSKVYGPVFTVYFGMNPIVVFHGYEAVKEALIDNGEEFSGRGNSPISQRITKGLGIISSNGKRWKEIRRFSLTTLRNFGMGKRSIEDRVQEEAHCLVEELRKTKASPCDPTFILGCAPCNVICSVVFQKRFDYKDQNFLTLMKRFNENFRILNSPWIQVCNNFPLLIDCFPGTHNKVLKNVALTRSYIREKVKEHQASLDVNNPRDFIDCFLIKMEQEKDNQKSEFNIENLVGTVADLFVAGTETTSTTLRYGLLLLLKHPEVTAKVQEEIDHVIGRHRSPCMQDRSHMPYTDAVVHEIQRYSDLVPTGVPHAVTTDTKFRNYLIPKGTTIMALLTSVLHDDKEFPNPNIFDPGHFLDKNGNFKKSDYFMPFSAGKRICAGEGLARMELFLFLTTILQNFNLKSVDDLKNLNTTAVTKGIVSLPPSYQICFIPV

Structure (SMILES) | target or system | test | test system | conditions | how to read | measurement | result
COC(=O)Nc1nc2cc(C(O)c3ccc(F)cc3)ccc2[nH]1 (centres unmarked) | Salmonella typhimurium | Ames preincubation test | TA1537 | 437.5 µg/plate, without S9 |  | revertants | 19.7 revertants/plate
CCN(CC)CC#CCNc1ccnc2cc(Cl)ccc12 | Salmonella typhimurium | mini-Ames test | TA100 | 250.0 µg/well, without S9 |  | revertants per well | 30
CC(C)Cc1ccc(C(C)C(=O)N[C@@H](CCCCNC(=O)CCOCCOCCOCCOCCOCCOCCNC(=O)CN2CCN(CC(=O)[O-])CCN(CC(=O)[O-])CCN(CC(=O)[O-])CC2)C(=O)Nc2cccc3c(C(=O)NCC(=O)N4CC(F)(F)C[C@H]4C#N)ccnc23)cc1.[177Lu+3] (some centres unmarked) | U-87 MG tumour model |  | host not given, blood | 4 h, tumour-bearing |  | tracer uptake | 8.8 %ID/g
CC[C@H](C)[C@H](NC(=O)[C@H](Cc1ccccc1)NC(=O)[C@H](CCC(=O)O)NC(=O)[C@H](CCCCN)NC(=O)[C@H](C)NC(=O)[C@H](C)NC(=O)[C@H](CCC(N)=O)NC(=O)CNC(=O)[C@H](CCC(=O)O)NC(=O)[C@H](CC(C)C)NC(=O)[C@H](Cc1ccc(O)cc1)NC(=O)[C@H](CO)NC(=O)[C@H](CO)NC(=O)[C@@H](NC(=O)[C@H](CC(=O)O)NC(=O)[C@H](CO)NC(=O)[C@@H](NC(=O)[C@H](Cc1ccccc1)NC(=O)[C@@H](NC(=O)CNC(=O)[C@H](CCC(=O)O)NC(=O)[C@H](C)NC(=O)[C@@H](N)Cc1c[nH]cn1)[C@@H](C)O)[C@@H](C)O)C(C)C)C(=O)N[C@@H](C)C(=O)N[C@@H](Cc1c[nH]c2ccccc12)C(=O)N[C@@H](CC(C)C)C(=O)N[C@H](C(=O)N[C@@H](CCCCN)C(=O)NCC(=O)N[C@@H](CCCN=C(N)N)C(=O)NCC(=O)O)C(C)C | DPP-4 (recombinant) | substrate, LC-MS |  | 500 µM, 24 h |  | remaining peptide | ~65%
N#C[C@@H]1CC(F)(F)CN1C(=O)CNC(=O)c1ccnc2c(NC(=O)[C@@H](N)CCCCNC(=O)CCOCCOCCOCCOCCOCCOCCNC(=O)CN3CCN(CC(=O)[O-])CCN(CC(=O)[O-])CCN(CC(=O)[O-])CC3)cccc12.[177Lu+3] | U-87 MG tumour model |  | host not given, stomach | 4 h, tumour-bearing |  | tracer uptake | 0.14 %ID/g
O=C1NC2(CC2)COc2ncc(F)cc2[C@H]2COCCN2c2ccn3ncc1c3n2 | Salmonella typhimurium | Ames test | TA102 | 1500 µg/plate, 48 h, with: without S9 |  | revertant colonies | 388 ± 5 revertants/plate
CC(C)OCCOCc1ccc(OCC(O)CN(N=O)C(C)C)cc1 (centres unmarked) | Salmonella typhimurium | Ames test | TA1537 | 5000 µg/plate, without metabolic activation | relative to: solvent control | revertant fold increase | 0.4 fold
COc1cccc(OC)c1-c1cc(C(=O)NC2(C(=O)O)C3CC4CC(C3)CC2C4)nn1-c1ccc(C(=O)N(C)CCOCCN(C)C(=O)[C@H](CCCCNC(=O)[C@H](CC(C)C)NC(=O)C2OC2C(=O)O)NC(=O)CN2CCN(CC(=O)[O-])CCN(CC(=O)[O-])CCN(CC(=O)[O-])CC2)cc1C(C)C.[177Lu+3] (mixture of isomers) | HT-29 tumour model |  | host not given, blood | 24 h, tumour-bearing |  | tracer uptake | 0.4 %ID/g
COCC1CN(C2CCN(c3cc(OC)c(Nc4ncc(Br)c(Nc5ccc6c(c5P(C)(C)=O)OCCO6)n4)cc3C)CC2)C1 |  |  | EGFR-mutant NSCLC patients, plasma | oral, 60 mg single dose, median |  | Tmax | 1.98 h
CC[C@H](C)[C@H](NC(=O)C[C@H](NC(=O)CN1CCN2CCN(CC1)CC(=O)[O][Al]([18F])[O]C(=O)C2)C(=O)O)C(=O)N[C@H]1CCc2cccc3c2N(C1=O)[C@H](C(=O)NCc1cn[nH]n1)C3 | MC-38 tumour model |  | host not given, intestine | 30 min, tumour-bearing |  | tracer uptake | 0.5 %ID/g
C=C(NC(=O)c1csc(-c2nc3c(cc2O)-c2nc(cs2)C(=O)NC(C(C)O)C(=O)NC(=C(C)OC)c2nc(cs2)C(=O)NC2c4nc(cs4)C(=O)NC(COC(=O)c4c5c6c(cccc6n4O)COC(=O)C(OC4CC(C)(O)C(N(C)C)C(C)O4)C2OC5)c2nc-3cs2)n1)C(N)=O (centres unmarked) |  |  | Sprague-Dawley rat, both sexes, plasma | intravenous infusion, 18 mg/kg single dose |  | Cmax | 8050 ± 2670 ng/mL
OC[C@@H]1[C@@H](O)[C@H](O)[C@@H](O)CN1CCCCCOCC1CC1 | GBA2 | inhibitor, 4MU-β-D-glucopyranoside | HEK293T homogenates overexpressing GBA2 |  | relative to: GCS IC50 over GBA2 IC50 | selectivity ratio | 400
N#C[C@@H]1CC(F)(F)CN1C(=O)CNC(=O)c1ccnc2c(NC(=O)[C@H](CCCCNC(=O)CCOCCOCCOCCOCCOCCOCCNC(=O)CN3CCN(CC(=O)[O-])CCN(CC(=O)[O-])CCN(CC(=O)[O-])CC3)NC(=O)CCCc3ccc(I)cc3)cccc12.[177Lu+3] | U-87 MG tumour model |  | host not given, muscle | 96 h, tumour-bearing |  | tracer uptake | 0.05 %ID/g
N#Cc1ccnc(N2C(=O)CC[C@H]2C(=O)N(c2cc(F)cc(F)c2)[C@H](C(=O)NC2CC(F)(F)C2)c2ccccc2Cl)c1 (stereo in doubt) | Nuclear receptor subfamily 1 group I member 2 (NR1I2, Homo sapiens, UniProt O75469) | reporter gene, agonist |  | 1 µM | relative to: rifampicin | activation | 69%
CNC(=O)C1CCCN(C(=O)C2CC3CCC2N3C(=O)[C@@H]2C[C@@H](O)CN2C(=O)NCc2cccc(Cl)c2F)C1 (mixture of isomers) | Cytochrome P450 2C9 (CYP2C9, Homo sapiens, UniProt P11712) | preincubation without NADPH | human | 16.7 µM | relative to: negative control | remaining activity | 102% and 97.6% and 104%
C=CC(=O)Nc1cc(Nc2nccc(-c3cn(C)c4ccccc34)n2)c(OCC(F)(F)F)nc1N(C)CCN(C)C | Cytochrome P450 2C8 (CYP2C8, Homo sapiens, UniProt P10632) | substrate |  | 3 µM, 60 min, 2C8 isoform, liver abundance-normalized |  | contribution to substrate depletion | 2.93%
OC[C@@H]1[C@@H](O)[C@H](O)[C@@H](O)CN1CCCC(F)(F)COCc1ccc(-c2ccccc2)cc1 | GBA2 | inhibitor, 4MU-β-D-glucopyranoside | HEK293T homogenates overexpressing GBA2 |  | relative to: GCS IC50 over GBA2 IC50 | selectivity ratio | 60
O=C1C2CC3CC1CC(C(=O)N1CCN(c4ccc([N+](=O)[O-])c5ncccc45)CC1)(C3)C2 | Salmonella typhimurium | Ames test | TA97a | 0.05 µg/well, without S9 | relative to: vehicle | revertant fold increase | 1
N#C[C@@H]1CC(F)(F)CN1C(=O)CNC(=O)c1ccnc2c(NC(=O)CCOCCOCCOCCOCCOCCOCCNC(=O)[C@H](CCCCNC(=O)CN3CCN(CC(=O)[O-])CCN(CC(=O)[O-])CCN(CC(=O)[O-])CC3)NC(=O)CCCc3ccc(I)cc3)cccc12.[177Lu+3] | U-87 MG tumour model |  | host not given, bone | 24 h, tumour-bearing |  | tracer uptake | 1.38 %ID/g
O=S(=O)(NCc1ccncc1)c1ccc(C2CCCCC2)cc1 | human hepatocytes |  |  | 1 µM |  | CLint, scaled | 44.5 mL/min/kg
